Measured values collected from several papers.
A part holds a random share of what one study measured. Values joined by “and” are separate records of one study, mostly repeats; a detail may differ.
Chain of UniProt P36896 (whole entry, looked up): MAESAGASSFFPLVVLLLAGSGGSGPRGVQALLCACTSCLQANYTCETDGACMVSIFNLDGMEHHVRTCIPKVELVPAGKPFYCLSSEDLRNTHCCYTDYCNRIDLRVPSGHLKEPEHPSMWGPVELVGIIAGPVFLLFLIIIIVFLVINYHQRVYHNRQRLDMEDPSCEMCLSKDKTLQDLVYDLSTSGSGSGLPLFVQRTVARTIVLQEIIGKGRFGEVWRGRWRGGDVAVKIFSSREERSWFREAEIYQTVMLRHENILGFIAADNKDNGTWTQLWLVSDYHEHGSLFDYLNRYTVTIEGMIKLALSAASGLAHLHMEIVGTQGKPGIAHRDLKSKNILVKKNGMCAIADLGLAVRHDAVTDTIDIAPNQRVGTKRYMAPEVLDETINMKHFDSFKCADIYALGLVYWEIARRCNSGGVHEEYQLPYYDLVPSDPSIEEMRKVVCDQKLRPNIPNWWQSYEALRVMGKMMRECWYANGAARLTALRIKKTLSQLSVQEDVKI
Chain of UniProt P49841 (whole entry, looked up): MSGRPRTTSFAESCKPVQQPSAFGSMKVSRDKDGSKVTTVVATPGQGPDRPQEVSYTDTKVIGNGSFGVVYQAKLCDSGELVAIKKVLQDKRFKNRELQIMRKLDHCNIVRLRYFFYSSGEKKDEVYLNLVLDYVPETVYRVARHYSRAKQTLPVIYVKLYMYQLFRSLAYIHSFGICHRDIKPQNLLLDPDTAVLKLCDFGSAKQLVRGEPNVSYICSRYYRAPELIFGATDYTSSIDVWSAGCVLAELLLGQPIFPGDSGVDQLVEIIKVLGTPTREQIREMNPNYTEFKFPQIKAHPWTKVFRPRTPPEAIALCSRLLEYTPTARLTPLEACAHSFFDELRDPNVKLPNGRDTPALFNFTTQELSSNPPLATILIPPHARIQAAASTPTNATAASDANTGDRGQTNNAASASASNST
Chain of UniProt P27361 (whole entry, looked up): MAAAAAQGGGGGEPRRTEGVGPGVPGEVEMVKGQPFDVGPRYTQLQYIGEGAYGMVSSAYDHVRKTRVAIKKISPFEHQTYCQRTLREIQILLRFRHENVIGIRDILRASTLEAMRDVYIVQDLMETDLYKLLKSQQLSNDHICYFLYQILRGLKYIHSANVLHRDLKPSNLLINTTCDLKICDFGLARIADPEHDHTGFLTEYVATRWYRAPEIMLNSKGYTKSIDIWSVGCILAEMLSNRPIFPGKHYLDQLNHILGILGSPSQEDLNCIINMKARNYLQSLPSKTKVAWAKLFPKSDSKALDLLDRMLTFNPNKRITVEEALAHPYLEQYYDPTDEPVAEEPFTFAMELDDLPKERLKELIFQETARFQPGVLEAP
Chain of UniProt Q6PHR2 (whole entry, looked up): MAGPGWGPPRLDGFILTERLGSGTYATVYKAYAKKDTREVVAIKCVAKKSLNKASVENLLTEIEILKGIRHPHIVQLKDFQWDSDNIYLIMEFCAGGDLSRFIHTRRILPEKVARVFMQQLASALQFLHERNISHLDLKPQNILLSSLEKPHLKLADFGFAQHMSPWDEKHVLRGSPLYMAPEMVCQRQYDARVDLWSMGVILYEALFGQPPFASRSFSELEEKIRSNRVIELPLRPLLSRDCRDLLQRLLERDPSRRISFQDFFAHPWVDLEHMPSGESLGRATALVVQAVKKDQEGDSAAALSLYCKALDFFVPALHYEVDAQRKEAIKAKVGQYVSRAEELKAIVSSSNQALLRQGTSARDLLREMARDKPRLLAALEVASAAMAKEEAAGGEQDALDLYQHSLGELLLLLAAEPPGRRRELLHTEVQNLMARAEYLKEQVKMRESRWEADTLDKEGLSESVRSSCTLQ
Chain of UniProt Q16832 (whole entry, looked up): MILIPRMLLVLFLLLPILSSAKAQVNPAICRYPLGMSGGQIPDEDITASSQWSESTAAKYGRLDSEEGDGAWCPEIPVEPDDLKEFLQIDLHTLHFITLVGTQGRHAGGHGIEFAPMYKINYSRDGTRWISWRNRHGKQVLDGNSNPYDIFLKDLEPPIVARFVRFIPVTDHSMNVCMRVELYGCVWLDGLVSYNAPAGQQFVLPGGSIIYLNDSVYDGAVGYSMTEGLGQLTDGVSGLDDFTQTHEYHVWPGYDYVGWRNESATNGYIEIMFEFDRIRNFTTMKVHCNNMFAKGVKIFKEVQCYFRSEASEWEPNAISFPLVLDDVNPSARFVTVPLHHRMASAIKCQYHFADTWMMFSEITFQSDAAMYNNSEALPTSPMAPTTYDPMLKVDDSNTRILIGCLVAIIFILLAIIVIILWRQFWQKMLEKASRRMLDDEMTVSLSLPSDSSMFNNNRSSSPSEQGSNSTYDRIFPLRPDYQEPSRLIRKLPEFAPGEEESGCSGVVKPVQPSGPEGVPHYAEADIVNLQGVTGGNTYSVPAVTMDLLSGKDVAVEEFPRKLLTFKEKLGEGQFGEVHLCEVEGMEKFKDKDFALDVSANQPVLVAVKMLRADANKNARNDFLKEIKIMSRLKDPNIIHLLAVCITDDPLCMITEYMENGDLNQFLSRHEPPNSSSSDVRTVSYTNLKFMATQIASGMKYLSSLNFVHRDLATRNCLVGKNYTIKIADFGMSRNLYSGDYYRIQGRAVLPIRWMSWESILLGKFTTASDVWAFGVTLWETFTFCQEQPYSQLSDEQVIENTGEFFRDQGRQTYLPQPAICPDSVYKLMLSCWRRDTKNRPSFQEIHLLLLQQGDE
Chain of UniProt O00444 (whole entry, looked up): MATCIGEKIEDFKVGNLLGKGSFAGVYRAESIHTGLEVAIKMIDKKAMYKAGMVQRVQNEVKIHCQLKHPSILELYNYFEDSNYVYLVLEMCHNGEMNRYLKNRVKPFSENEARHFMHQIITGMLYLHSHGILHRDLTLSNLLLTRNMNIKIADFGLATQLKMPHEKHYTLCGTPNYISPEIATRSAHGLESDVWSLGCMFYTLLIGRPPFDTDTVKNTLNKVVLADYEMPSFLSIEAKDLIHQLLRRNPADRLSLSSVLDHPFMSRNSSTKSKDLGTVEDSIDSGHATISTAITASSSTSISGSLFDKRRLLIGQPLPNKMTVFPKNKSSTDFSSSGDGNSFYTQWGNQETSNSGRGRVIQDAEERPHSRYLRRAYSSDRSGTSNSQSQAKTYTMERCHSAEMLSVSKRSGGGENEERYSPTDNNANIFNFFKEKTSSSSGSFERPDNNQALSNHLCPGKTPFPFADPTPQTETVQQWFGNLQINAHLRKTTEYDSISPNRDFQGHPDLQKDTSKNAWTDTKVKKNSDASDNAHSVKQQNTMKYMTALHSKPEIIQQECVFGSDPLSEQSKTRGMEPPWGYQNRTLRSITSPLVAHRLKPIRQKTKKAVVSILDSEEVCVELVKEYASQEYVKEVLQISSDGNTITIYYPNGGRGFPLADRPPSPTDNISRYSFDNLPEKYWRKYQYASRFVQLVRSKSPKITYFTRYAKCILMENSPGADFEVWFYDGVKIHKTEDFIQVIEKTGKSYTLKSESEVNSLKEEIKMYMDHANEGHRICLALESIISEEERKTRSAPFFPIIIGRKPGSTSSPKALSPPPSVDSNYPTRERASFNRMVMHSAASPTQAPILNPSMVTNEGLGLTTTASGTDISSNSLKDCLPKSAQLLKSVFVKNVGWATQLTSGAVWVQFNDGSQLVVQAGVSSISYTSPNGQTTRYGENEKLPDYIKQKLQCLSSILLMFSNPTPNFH
Chain of UniProt P11362 (whole entry, looked up): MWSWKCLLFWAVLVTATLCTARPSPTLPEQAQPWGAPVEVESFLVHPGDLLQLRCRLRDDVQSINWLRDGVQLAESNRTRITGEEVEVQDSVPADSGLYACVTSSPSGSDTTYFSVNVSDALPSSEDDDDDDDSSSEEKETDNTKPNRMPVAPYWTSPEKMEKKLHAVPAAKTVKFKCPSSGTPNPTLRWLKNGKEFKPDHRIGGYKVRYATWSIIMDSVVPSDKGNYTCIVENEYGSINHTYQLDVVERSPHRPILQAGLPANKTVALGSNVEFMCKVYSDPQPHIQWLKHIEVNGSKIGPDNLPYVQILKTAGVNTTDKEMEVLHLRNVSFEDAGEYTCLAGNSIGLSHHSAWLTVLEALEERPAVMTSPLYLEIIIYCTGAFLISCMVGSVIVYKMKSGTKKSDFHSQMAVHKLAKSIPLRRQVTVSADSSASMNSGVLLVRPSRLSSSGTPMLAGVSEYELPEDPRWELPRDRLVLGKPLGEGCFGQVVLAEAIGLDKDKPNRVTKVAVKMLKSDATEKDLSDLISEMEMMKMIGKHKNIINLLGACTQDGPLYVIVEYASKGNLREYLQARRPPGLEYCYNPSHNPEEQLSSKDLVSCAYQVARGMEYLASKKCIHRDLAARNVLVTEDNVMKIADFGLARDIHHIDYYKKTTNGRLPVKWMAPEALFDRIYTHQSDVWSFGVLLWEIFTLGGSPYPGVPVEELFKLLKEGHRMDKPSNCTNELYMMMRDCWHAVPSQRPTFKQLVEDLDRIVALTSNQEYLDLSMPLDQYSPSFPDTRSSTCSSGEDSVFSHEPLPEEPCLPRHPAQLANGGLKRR
Chain of UniProt P78368 (whole entry, looked up): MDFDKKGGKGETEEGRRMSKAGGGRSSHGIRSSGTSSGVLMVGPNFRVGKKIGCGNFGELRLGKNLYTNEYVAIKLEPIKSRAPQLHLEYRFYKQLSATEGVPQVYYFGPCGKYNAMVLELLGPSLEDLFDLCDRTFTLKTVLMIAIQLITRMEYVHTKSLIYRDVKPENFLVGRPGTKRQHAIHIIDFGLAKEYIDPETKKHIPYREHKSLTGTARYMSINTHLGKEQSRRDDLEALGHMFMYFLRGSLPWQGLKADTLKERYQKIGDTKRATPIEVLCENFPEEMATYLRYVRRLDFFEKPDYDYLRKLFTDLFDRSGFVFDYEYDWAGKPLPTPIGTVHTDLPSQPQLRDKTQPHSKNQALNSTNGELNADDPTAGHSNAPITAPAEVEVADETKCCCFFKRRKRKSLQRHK

Sample 1
SMILES: O=C(O)[C@H]1[C@H](Cn2nnc3ccccc3c2=O)CC[C@@H]1C(=O)c1ccc(OCCC2CCOCC2)cc1
Effect on: cell-free assay
Method: competition with immobilised ligand
Tested at: 1 µM
Measurement: remaining binding
Ribosomal protein S6 kinase alpha-5, N-terminal kinase domain (RPS6KA5, Homo sapiens, UniProt O75582): 100%
Serine/threonine-protein kinase Chk2 (CHEK2, Homo sapiens, UniProt O96017): 100%
Dual specificity mitogen-activated protein kinase kinase 5 (MAP2K5, Homo sapiens, UniProt Q13163): 100%
Protein-tyrosine kinase 6 (PTK6, Homo sapiens, UniProt Q13882): 100%
Discoidin domain-containing receptor 2 (DDR2, Homo sapiens, UniProt Q16832): 100%
Non-receptor tyrosine-protein kinase TYK2, JH1 (TYK2, Homo sapiens, UniProt P29597): 41%
Serine/threonine-protein kinase PLK4 (PLK4, Homo sapiens, UniProt O00444): 97%
Inhibitor of nuclear factor kappa-B kinase subunit alpha (CHUK, Homo sapiens, UniProt O15111): 100%

Sample 2
SMILES: CCCNC(=O)Nc1ccc(Oc2ncnc3cc(OC)c(OC)cc23)cc1Cl
Effect on: enzyme activity
Action: inhibitor
Tested at: 0.5 µM
Relative to: control
Measurement: remaining activity
MAP kinase-activated protein kinase 2 (MAPKAPK2, Homo sapiens, UniProt P49137): 101%
Mitogen-activated protein kinase 3 (MAPK3, Homo sapiens, UniProt P27361): 105%
Casein kinase I isoform gamma-2 (CSNK1G2, Homo sapiens, UniProt P78368): 84.8%
Serine/threonine-protein kinase ULK2 (ULK2, Homo sapiens, UniProt Q8IYT8): 89.2%
Tyrosine-protein kinase ABL2 (ABL2, Homo sapiens, UniProt P42684): 90.5%
Rhodopsin kinase GRK7 (GRK7, Homo sapiens, UniProt Q8WTQ7): 94.7%
Macrophage-stimulating protein receptor (MST1R, Homo sapiens, UniProt Q04912): 89.3%
Ribosomal protein S6 kinase alpha-2 (RPS6KA2, Homo sapiens, UniProt Q15349): 95.7%
Wee1-like protein kinase (WEE1, Homo sapiens, UniProt P30291): 92.9%
Glycogen synthase kinase-3 beta (GSK3B, Homo sapiens, UniProt P49841): 91.3%
Serine/threonine-protein kinase ULK3 (ULK3, Homo sapiens, UniProt Q6PHR2): 80.7%
Fibroblast growth factor receptor 1 (FGFR1, Homo sapiens, UniProt P11362): 75.4%
Activin receptor type-1B (ACVR1B, Homo sapiens, UniProt P36896): 99.6%
Dual specificity mitogen-activated protein kinase kinase 2 (MAP2K2, Homo sapiens, UniProt P36507): 99.8%

Sample 3
SMILES: Cn1cnc(Cn2ccc3ccc(CNCc4[nH]c5ccccc5c4[C@H]4NC(=O)c5ccc(O)cc54)cc32)c1
Target: GTPase KRas (KRAS, Homo sapiens, UniProt P01116, G12C)
Effect on: binding
Action: competitor
Method: NanoBRET
Cell line: HEK293
Relative to: vehicle and 20 µM BI compound
Measurement: normalized BRET
9.14 nM, 4 h: 87.5% and 98% and 83% and 89.6%
3.05 nM, 0.5 h: 91.7% and 93.3% and 85.1% and 112%
247 nM, 2 h: 99.6% and 87% and 88.2% and 96.1%
339 pM, 3 h: 122% and 95.2% and 81.5% and 88.4%
82.2 nM, 0.5 h: 92.8% and 95.5% and 97.3% and 99.9%
6.67 µM, 3 h: 4.66% and 3.68% and 3.82% and 5.23%

Further values, each from its own experiment
Cc1ccc(C(=O)Nc2ccc(CN3CCN(C)CC3)c(C(F)(F)F)c2)cc1C#Cc1cnc2cccnn12
inhibition (Serine/threonine-protein kinase STK11 (STK11, Homo sapiens, UniProt Q15831); cell-free assay; 1 µM): 28%

For quick reference, copied from above (further values, each from its own experiment):
Cc1ccc(C(=O)Nc2ccc(CN3CCN(C)CC3)c(C(F)(F)F)c2)cc1C#Cc1cnc2cccnn12
inhibition (Serine/threonine-protein kinase STK11 (STK11, Homo sapiens, UniProt Q15831); cell-free assay; 1 µM): 28%
